Results collected from several papers.
Every numbered part comes from another study and shows a few of its results, in no order. Changes are numbered by the printed parent chain.

Series 1
Target: ABI1, truncated, D143A, DHFR fusion (Arabidopsis thaliana)
Technique: DHFR PCA, deep sequencing
Medium: yeast
Setting: methotrexate growth selection, single substitutions
With: (+)-ABA 17 µM
Reference: wild-type fitted maximum
Direction: higher = stronger binding
Starting sequence: PYL1, truncated, DHFR fusion (Arabidopsis thaliana); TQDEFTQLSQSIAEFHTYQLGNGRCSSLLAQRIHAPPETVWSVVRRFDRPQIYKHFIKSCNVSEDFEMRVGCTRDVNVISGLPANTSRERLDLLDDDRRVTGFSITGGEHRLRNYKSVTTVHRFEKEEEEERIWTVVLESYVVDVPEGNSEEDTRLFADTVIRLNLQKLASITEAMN
Substitution | relative binding score
R163T | 70.1%
F47V | -1.33%
C25R | -15.4%
A170V | 20.4%
G107T | 20.5%
V70R | 48.4%
A84K | 3.81%
E174N | 37.6%
G148Q | 51.1%
V145G | -5.02%
V78L | 89.2%
H34P | 62.1%
F56E | 14.9%
T86D | 66.5%

Series 2
Target: CCND3, cyclin fold, Cln2 fusion (human)
Technique: yeast growth competition, sequencing
Medium: yeast
Setting: weak parent motif
Reference: not given
Direction: higher = stronger binding
Starting sequence: SCAPER docking peptide (human); SNARRSLNFGGST
Substitution | normalised enrichment score
S1C | 0.179
N8M | 0.13
N2S | 0.191
T13D | 0.195
G11E | 0.0498
T13W | 0.0943
N8V | 0.11
L7N | 0.115
G10N | 0.0953
N8A | 0.109
T13E | 0.126
S12C | 0.0837
F9N | 0.0766
R5W | 0.0161
N2F | 0.155
R5A L7A | 0.0549
G11V | 0.18
L7M | 0.131

Series 3
Target: Prothrombin, mature alpha-thrombin (F2, Homo sapiens, UniProt P00734)
Technique: aptamer microarray, sandwich
Form: DNA with 2'F-ANA
Medium: in vitro
Tested at: 200 nM
Setting: whole 15-mer aptamer, many near background
With: Cy3 exosite-II aptamer, 400 nM
Direction: higher = stronger binding
Strand: GGTTGGTGTGGTTGG
Modification | mean fluorescence intensity
2'F-ANA at 1 3 6 7 8 9 11 12 14 | 112 a.u.
2'F-ANA at 1 2 3 4 5 6 10 11 13 15 | 52.9 a.u.
2'F-ANA at 2 4 9 12 13 | 423 a.u.
2'F-ANA at 3 4 7 9 10 11 13 14 | 196 a.u.
2'F-ANA at 2 3 4 7 9 10 11 13 14 15 | 156 a.u.
2'F-ANA at 2 10 11 12 13 14 | 92.4 a.u.
2'F-ANA at 1 2 8 10 11 12 13 | 59.4 a.u.
2'F-ANA at 2 3 4 5 6 7 8 9 13 14 | 49.7 a.u.
2'F-ANA at 1 4 6 9 11 12 13 | 154 a.u.
2'F-ANA at 1 2 3 8 9 10 14 15 | 55.2 a.u.
2'F-ANA at 3 4 9 11 12 13 | 703 a.u.
2'F-ANA at 5 6 12 13 | 124 a.u.
2'F-ANA at 3 4 9 12 | 975 a.u.
2'F-ANA at 3 4 5 6 8 9 10 11 15 | 52.1 a.u.
2'F-ANA at 1 2 4 8 11 12 15 | 278 a.u.
2'F-ANA at 1 5 7 9 10 11 13 14 | 46.1 a.u.
2'F-ANA at 1 2 3 4 5 6 10 11 13 14 | 47.7 a.u.
2'F-ANA at 4 5 12 | 161 a.u.
2'F-ANA at 3 7 8 10 12 | 727 a.u.
2'F-ANA at 3 4 7 9 11 | 612 a.u.

Series 4
Target: RNA binding protein fox-1 homolog 2, RRM domain, GST-SBP tag (RBFOX2, Homo sapiens, UniProt O43251-10, residues 100-194)
Technique: RNA Bind-n-Seq
Form: RNA
Medium: in vitro
Tested at: 365 nM
Setting: natural RNA segment, single round, ends assumed
Reference: no-protein control
Direction: higher = stronger binding
Residues (chain): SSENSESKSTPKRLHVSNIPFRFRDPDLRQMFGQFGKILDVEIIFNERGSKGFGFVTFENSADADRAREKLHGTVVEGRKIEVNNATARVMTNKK
Strand | RBNS enrichment (R)
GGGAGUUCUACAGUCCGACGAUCGCUCUAGCCUGUACAUCCCACAUCCUCCGUCCGUCUGUCCAUCCAGGGUUUGUCUGUCCUGAAAGUGACACCCACCAGCUCUGCGGGAGACUCUUGGUAGACAGACCUGUUGGAAUUCUCGGGUGCCAA | 0.422
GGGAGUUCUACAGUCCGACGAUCAAUUGUGUAAUAAACUUGAUGACGAUGUCAAUCUUUUAUACUGCAUUGUAUUUUUUUCCUUUUGUAACAAAAUAUUUUUAAAUAAUAAAUGGGGUGUGAGCUGUUUACGGUGGAAUUCUCGGGUGCCAA | 0.431
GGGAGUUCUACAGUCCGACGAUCCCCUCGCCCCAGGCCCGGGUCCUCCAGCGUUGAACACUUCCUUGCUUUUUUCACAUGUUUUAUGGAAUUGUUCACAUGAUUUGAAAUAAUAAAAUGUAGAAAGAAAACACUGGAAUUCUCGGGUGCCAA | 0.391
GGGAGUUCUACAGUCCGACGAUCGCAGCCCAUUUUUGAAAUGUCAGCAUGUGCUGUGUUCAGUUCAGGUUUUUGUUGUUUGUUUUGUUAUUUUUUAACUAAUAAGUUGGUUAUCAGUGGUGGGUUUUCAAAAUUGGAAUUCUCGGGUGCCAA | 3.67
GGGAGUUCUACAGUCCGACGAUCAACCUCCCAUCUAUCCCCAUUCCUGAGACAGGAGUUACAGUCCCUUUUGGCCCUCACAUCCAAUAAAAGACUGAUACCACUGGAGUGGCUGGCUUUUAAUUCCCCUGGGCUGGAAUUCUCGGGUGCCAA | 0.381
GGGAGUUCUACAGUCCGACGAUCGGGGAAAAACCGUAUUUUUUUCUUGUCCAAUUAUUUCUAAAGACACACUACAUAGAAAGAGGCCCUAUAAACUCAAAAAGUCAUUGGGAAACUUAAAGUCUAUUCUACUUUGGAAUUCUCGGGUGCCAA | 0.37
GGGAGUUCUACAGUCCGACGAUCGACCAGGCCAGCCUUGAACUAACACAUAGGUUGGACCUCUGAAUGGCCUUAUACUUGGAUAUUUGGCUUGUAUCAUUAUAAGGUUGUUUUUCUCCAAACAAAUUUCCUGUUGGAAUUCUCGGGUGCCAA | 0.324
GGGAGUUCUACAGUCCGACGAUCCCACUCAACUUUCAGUUGGCUCUGUGUCAGUUUUCCAUUCAGUGUUAACUACUUGUUACUGCCAUGCUGCUUGCCCUCCCUUGAAGUGUCUAUAAGCUCAUCACAGCCUAUGGAAUUCUCGGGUGCCAA | 0.367
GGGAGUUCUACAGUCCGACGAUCGGACAGACACCAGACCAUGGAGGUGUCCUGCUAAGCAGAUGCUCCUCCCCUGGACCAUUGCAAGUCCAUCCUUCAAAUGACCACUCCAUAAUAUAACAUUUCAUCCAGUAUGGAAUUCUCGGGUGCCAA | 0.328
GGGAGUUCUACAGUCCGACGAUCAGAAUGGGUUCAACAGGGAGUGGAGAGUGAAGCUAAUGUAAAAUAGUUUAGUGGCAGUGGGAAUCUUUGGACUUCAUUUACCUCUCUCAUUAUUUCUAUUACCAUGGAUAUGGAAUUCUCGGGUGCCAA | 1.74
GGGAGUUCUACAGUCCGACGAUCGGGUAUGUCCUGCUCCUUUCCACCAGUGAUUUGUAUUAAGACAGCACUUAUAUUGUACAAUACUUCAGACUGUUUUUUUUAAAUACAUAAAACUUUAUGUUAAAAAACUCUGGAAUUCUCGGGUGCCAA | 0.557
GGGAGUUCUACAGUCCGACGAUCGGGACAACCCAGGGCUUCGUGCAUGUCAGGCACACACUCCCAACUAAGCUACAUCCCCAGUCCCUCUUUCUAGAAAACAGAUAAGUCCAUGUUCAGGGGAGAAGAGGUCAUGGAAUUCUCGGGUGCCAA | 1.71

Further values, each from its own experiment
Molecule | target | assay | system | setting | scale | measurement | value
PhoQ, residues 284 288 289 292 302 303 STVVAA | PhoP, residues 12 14 15 18 19 LHHVQ (Escherichia coli, UniProt P23836) | Sort-seq, measured: YFP reporter | E. coli | PhoQ-PhoP variant library, with: 10 µM Mg2+ | reference: high Mg2+ state, higher = stronger signaling | fold induction | 4.25

A few entries again (series 3):
Modification | mean fluorescence intensity
2'F-ANA at 5 6 12 13 | 124 a.u.
2'F-ANA at 3 4 9 12 | 975 a.u.
2'F-ANA at 3 4 5 6 8 9 10 11 15 | 52.1 a.u.
2'F-ANA at 1 2 4 8 11 12 15 | 278 a.u.
2'F-ANA at 1 5 7 9 10 11 13 14 | 46.1 a.u.
2'F-ANA at 1 2 3 4 5 6 10 11 13 14 | 47.7 a.u.
